Measurements of several laboratories.
Compare with care: the assays were run in different laboratories. ± gives the spread as reported. Values after ≈ are worked out from the molar mass of the structure shown.

| SMILES | target or system | assay | test system | setting | how to read | endpoint | result |
| --- | --- | --- | --- | --- | --- | --- | --- |
| Cn1c(Cn2ccc(C(F)(F)F)c(Oc3cc(Cl)cc(C#N)c3)c2=O)n[nH]c1=O | HIV-1 | viral replication, single-round infection | RT mutant E40K |  |  | EC50 | 1.5 ± 0.5 nM |
| CCCC(=O)OCSc1ccccc1C(=O)NCCC(N)=O | HIV-1 | viral replication | human PBMC, subtype A 92RW020, CCR5-tropic clinical isolate |  |  | EC50 | 870 ± 880 nM |
| CNc1nc(N)nc2c1ncn2[C@H]1C[C@H](O)[C@](CO)(CF)O1 | HIV-1 M184V | MTT | MT4 |  |  | IC50 | > 1000 nM |
| CC[C@H](C)[C@H](N)C(=O)N[C@@H](Cc1c[nH]c2ccccc12)C(=O)N[C@@H](CC(C)C)C(=O)N[C@H](C(=O)N[C@@H](C)C(=O)N[C@@H](CC(C)C)C(=O)N[C@@H](CCCCN)C(=O)N[C@@H](Cc1ccccc1)C(=O)N[C@@H](CC(C)C)C(=O)NCC(=O)N[C@@H](CCCCN)C(=O)N[C@@H](Cc1c[nH]cn1)C(=O)N[C@@H](C)C(=O)N[C@@H](C)C(=O)N[C@@H](CCCCN)C(=O)N[C@@H](Cc1c[nH]cn1)C(=O)N[C@@H](CC(C)C)C(=O)N[C@@H](C)C(=O)N[C@@H](CCCCN)C(=O)N[C@@H](CCC(N)=O)C(=O)N[C@@H](CCC(N)=O)C(=O)N[C@@H](CC(C)C)C(=O)N[C@@H](CO)C(=O)N[C@@H](CCCCN)C(=O)N[C@@H](CC(C)C)C(=O)O)[C@@H](C)O | Bacillus subtilis | broth microdilution | 168 |  |  | MIC | 6.25 µM (≈ 17.8 µg/mL) |
| CCc1c(C(=O)C(N)=O)c2c(OCC(=O)O)cccc2n1Cc1ccccc1 |  |  | TN population, mouse | intravenous, 60 µg/mouse, 24 h, preincubated with venom, together with: Daboia russelii venom 2.5 x LD50 |  | survival | 0% |
| C[C@]1(CO)O[C@@H](n2cnc3c(=O)[nH]c(N)nc32)C[C@@H]1O | HIV-1 K65R |  | MT4 |  |  | IC50 | 189 nM |
| O=C1Nc2ccc(Cl)cc2[C@@](C#CC2CC2)(C(F)(F)F)O1 | HIV-1 | viral replication, single-round infection | RT mutant K101E/M184I |  |  | EC50 | 0.9 ± 0.2 nM |
| Nc1nc(N)c2ncn([C@H]3C[C@H](O)[C@](CO)(CF)O3)c2n1 | HIV-1 K65R | MTT | MT4 |  |  | IC50 | 2.7 ± 0.5 nM |
| Cc1cc(/C=C/C#N)cc(C)c1Nc1ccnc(Nc2ccc(C#N)cc2)n1 | HIV-1 | viral replication, single-round infection | RT mutant Y181I |  |  | EC50 | 8.8 ± 0.1 nM |
| Cc1cn([C@H]2C[C@H](N=[N+]=[N-])[C@@H](CO)O2)c(=O)[nH]c1=O | HIV-1 | viral replication | human PBMC, subtype E 93TH051, CCR5-tropic clinical isolate |  |  | EC50 | 7.09 ± 5.25 nM |
| Cn1cnc(Cn2c(=O)[nH]/c(=N\c3cc4cn(C)nc4cc3Cl)n(Cc3cc(F)c(F)cc3F)c2=O)n1 |  |  | human, mild renal impairment | oral, 375 mg, treatment-related decreased GFR, Moderate severity |  | patients with adverse event | 0% |
| N#CC(C#N)=NNc1cccc(Cl)c1 | Escherichia coli | tetracycline MIC, checkerboard | tetracycline-resistant (pBR322) | 21 µM, together with: tetracycline | reference: MIC alone over combination | fold enhancement | 2 fold |
| Cc1ccc(C(C)Nc2nc(N3CCNCC3)nc3ccccc23)cc1 (stereo not shown) | SARS-CoV-2 | cytopathic effect | USA_WA1/2020 | retest 8-point |  | maximum response | 90.8% |
| Nc1ccn([C@H]2C[C@H](O)[C@](CO)(CF)O2)c(=O)n1 | HIV-1 M184V |  | MT4 |  |  | IC50 | > 1000 nM |
| Cc1cc(/C=C/C#N)cc(C)c1-n1cnc2cnc(Nc3ccc(/C=C/C#N)cc3)nc21 | HIV-1 | viral replication, single-round infection | RT mutant Y181I |  |  | EC50 | 3090 ± 221 nM |
| COCCCNC(=O)C1CCN(Cc2cc3ccccc3n2Cc2cccc(Cl)c2)CC1 | SARS-CoV-2 | cytopathic effect | USA_WA1/2020 | retest, 8-point, duplicates |  | maximum response | 1.64% |
| NC(=O)CCNC(=O)c1ccccc1S | HIV-1 | viral replication | human PBMC, subtype A 92RW020, CCR5-tropic clinical isolate |  |  | EC50 | 1440 ± 180 nM |
| CNC(=O)[C@@H](NC(=O)[C@H](CC(C)C)[C@H](O)C(=O)NO)C(C)(C)C | human fibrinogen | SDS-PAGE | Daboia russelii | concentration not given, unit not given, together with: PB venom | reference: untreated fibrinogen | remaining fibrinogen Aα chain | 0.803 |
| Cc1cc(/C=C/C#N)cc(C)c1Nc1nc(Nc2ccc(/C=C/C#N)cc2)ncc1N | HIV-1 | viral replication, single-round infection | RT mutant E138K/M184I |  |  | EC50 | 6.1 ± 0.9 nM |
| Nc1ncnc2c([C@@H]3N[C@H](CO)[C@@H](O)[C@H]3O)c[nH]c12 | Venezuelan equine encephalitis virus | viral replication | HeLa, SH3 | 12.5 µM |  | inhibition | 0.1% |
| CC[C@H](C)[C@H](NC(=O)[C@H](CC(C)C)NC(=O)[C@H](Cc1c[nH]c2ccccc12)NC(=O)[C@H](CCC(N)=O)NC(=O)[C@@H](NC(=O)[C@H](Cc1ccccc1)NC(=O)[C@H](C)NC(=O)[C@H](CCCCNC(=O)COCCOCCNC(=O)COCCOCCNC(=O)CC[C@H](NC(=O)CCCCCCCCCCCCCCCCCCC(=O)O)C(=O)O)NC(=O)[C@H](CCC(N)=O)NC(=O)[C@H](C)NC(=O)[C@@H](NC(=O)[C@H](CCCCN)NC(=O)[C@H](CC(=O)O)NC(=O)[C@H](CC(C)C)NC(=O)C(C)(C)NC(=O)[C@@H](NC(=O)[C@H](CO)NC(=O)[C@H](Cc1ccc(O)cc1)NC(=O)[C@H](CC(=O)O)NC(=O)[C@H](CO)NC(=O)[C@@H](NC(=O)[C@H](Cc1ccccc1)NC(=O)[C@@H](NC(=O)CNC(=O)[C@H](CCC(=O)O)NC(=O)C(C)(C)NC(=O)[C@@H](N)Cc1ccc(O)cc1)[C@@H](C)O)[C@@H](C)O)[C@@H](C)CC)[C@@H](C)CC)C(C)C)C(=O)N[C@@H](C)C(=O)NCC(=O)NCC(=O)N1CCC[C@H]1C(=O)N[C@@H](CO)C(=O)N[C@@H](CO)C(=O)NCC(=O)N[C@@H](C)C(=O)N1CCC[C@H]1C(=O)N1CCC[C@H]1C(=O)N1CCC[C@H]1C(=O)N[C@@H](CO)C(N)=O |  | item: anti-drug antibodies | healthy human subjects | 1.5 mg multiple ascending, post-baseline |  | subjects with treatment-emergent ADA | 0% |
| CC[C@]1(CO)O[C@@H](n2cnc3c(N)nc(N)nc32)C[C@@H]1O | HIV-1 K65R |  | MT4 |  |  | IC50 | 10.2 nM |
| Cc1cc(/C=C/C#N)cc(C)c1-n1cnc2cnc(Nc3ccc4cc(C#N)ccc4c3)nc21 | HIV-1 | viral replication, single-round infection | RT mutant K101P/V179I |  |  | EC50 | 96.9 ± 16.5 nM |
| CNc1nc(N)ncc1-c1cn([C@@H]2O[C@H](CO)[C@@H](O)[C@@]2(C)F)cn1 | Dengue virus 2 |  |  | concentration not given |  | antiviral activity | inactive |
| CC[C@]1(CO)O[C@@H](n2cnc3c(=O)[nH]c(N)nc32)C[C@@H]1O | HIV-1 M184V | MTT | MT4 |  |  | IC50 | > 1000 nM |

Excerpt of the above:
| SMILES | target or system | assay | test system | setting | how to read | endpoint | result |
| --- | --- | --- | --- | --- | --- | --- | --- |
| NC(=O)CCNC(=O)c1ccccc1S | HIV-1 | viral replication | human PBMC, subtype A 92RW020, CCR5-tropic clinical isolate |  |  | EC50 | 1440 ± 180 nM |
| CNC(=O)[C@@H](NC(=O)[C@H](CC(C)C)[C@H](O)C(=O)NO)C(C)(C)C | human fibrinogen | SDS-PAGE | Daboia russelii | concentration not given, unit not given, together with: PB venom | reference: untreated fibrinogen | remaining fibrinogen Aα chain | 0.803 |
| Cc1cc(/C=C/C#N)cc(C)c1Nc1nc(Nc2ccc(/C=C/C#N)cc2)ncc1N | HIV-1 | viral replication, single-round infection | RT mutant E138K/M184I |  |  | EC50 | 6.1 ± 0.9 nM |
